Published values pooled from the literature.
Lines come from different studies, so protocols differ.
FURIN: Furin (FURIN, Homo sapiens, UniProt P09958)
CASP3: Caspase-3 (CASP3, Homo sapiens, UniProt P42574)

Chains of the proteins cited; added tags and fusions are not shown. Residues count along the entry.
UniProt P09958, whole entry, looked up: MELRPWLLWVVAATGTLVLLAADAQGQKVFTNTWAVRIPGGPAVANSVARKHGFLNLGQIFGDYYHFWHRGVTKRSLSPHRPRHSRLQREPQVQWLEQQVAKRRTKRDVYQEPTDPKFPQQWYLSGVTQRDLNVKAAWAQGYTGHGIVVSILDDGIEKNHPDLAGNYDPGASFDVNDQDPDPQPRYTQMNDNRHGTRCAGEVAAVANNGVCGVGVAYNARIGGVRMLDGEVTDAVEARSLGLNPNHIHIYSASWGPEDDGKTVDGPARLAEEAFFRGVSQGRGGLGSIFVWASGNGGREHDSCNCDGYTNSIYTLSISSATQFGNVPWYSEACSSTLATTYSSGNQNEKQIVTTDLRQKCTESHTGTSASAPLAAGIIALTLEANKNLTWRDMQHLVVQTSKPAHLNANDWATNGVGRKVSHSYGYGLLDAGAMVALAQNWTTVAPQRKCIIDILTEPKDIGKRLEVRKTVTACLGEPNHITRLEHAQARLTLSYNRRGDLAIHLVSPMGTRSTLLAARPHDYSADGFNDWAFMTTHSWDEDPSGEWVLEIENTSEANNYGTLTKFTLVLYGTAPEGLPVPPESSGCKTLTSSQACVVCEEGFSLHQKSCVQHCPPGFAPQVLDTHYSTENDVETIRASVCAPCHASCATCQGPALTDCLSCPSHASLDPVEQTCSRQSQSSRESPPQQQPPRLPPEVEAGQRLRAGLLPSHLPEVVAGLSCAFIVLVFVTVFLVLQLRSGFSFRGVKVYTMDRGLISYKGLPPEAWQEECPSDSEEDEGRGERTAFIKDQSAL
UniProt P42574, whole entry, looked up: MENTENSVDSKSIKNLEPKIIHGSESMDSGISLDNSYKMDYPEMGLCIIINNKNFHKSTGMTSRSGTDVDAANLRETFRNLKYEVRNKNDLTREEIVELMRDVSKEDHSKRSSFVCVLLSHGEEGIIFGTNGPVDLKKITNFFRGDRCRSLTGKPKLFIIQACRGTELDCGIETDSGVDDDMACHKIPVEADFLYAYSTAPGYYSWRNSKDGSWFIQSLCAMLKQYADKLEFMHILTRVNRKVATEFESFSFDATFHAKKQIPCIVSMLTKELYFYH
UniProt P09211, whole entry: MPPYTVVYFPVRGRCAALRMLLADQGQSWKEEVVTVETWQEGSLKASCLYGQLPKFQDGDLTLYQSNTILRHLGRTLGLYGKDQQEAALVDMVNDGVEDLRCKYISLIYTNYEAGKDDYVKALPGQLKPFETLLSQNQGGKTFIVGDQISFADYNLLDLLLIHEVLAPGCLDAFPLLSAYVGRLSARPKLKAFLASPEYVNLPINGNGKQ
UniProt Q03530, whole entry: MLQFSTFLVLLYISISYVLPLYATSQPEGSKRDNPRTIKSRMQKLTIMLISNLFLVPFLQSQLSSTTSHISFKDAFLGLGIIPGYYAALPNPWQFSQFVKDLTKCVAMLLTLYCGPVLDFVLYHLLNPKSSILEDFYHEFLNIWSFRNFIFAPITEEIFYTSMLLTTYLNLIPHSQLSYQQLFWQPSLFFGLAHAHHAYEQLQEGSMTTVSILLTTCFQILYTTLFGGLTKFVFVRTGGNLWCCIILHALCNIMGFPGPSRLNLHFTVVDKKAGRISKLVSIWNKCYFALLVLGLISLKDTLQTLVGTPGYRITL
UniProt O55242, whole entry: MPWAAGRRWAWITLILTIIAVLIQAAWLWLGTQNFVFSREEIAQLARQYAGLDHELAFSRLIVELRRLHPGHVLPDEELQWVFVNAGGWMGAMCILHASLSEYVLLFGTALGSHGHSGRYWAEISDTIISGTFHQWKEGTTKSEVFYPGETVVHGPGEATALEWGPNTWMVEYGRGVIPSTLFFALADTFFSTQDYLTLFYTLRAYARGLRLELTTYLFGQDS
UniProt P17787, 26-502 limits assumed: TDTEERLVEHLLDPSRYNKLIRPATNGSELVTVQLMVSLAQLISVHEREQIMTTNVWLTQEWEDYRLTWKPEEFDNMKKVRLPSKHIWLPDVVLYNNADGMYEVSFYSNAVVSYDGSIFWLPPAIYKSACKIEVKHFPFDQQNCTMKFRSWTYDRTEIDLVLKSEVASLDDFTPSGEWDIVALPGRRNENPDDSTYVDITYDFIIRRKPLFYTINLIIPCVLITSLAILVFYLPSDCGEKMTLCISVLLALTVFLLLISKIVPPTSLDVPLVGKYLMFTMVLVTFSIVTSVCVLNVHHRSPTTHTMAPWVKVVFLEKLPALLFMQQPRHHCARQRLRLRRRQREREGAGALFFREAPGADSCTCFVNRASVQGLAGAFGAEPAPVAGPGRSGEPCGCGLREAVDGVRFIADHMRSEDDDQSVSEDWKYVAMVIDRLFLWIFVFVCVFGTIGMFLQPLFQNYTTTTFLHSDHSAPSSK
UniProt P32297, 32-505 limits assumed: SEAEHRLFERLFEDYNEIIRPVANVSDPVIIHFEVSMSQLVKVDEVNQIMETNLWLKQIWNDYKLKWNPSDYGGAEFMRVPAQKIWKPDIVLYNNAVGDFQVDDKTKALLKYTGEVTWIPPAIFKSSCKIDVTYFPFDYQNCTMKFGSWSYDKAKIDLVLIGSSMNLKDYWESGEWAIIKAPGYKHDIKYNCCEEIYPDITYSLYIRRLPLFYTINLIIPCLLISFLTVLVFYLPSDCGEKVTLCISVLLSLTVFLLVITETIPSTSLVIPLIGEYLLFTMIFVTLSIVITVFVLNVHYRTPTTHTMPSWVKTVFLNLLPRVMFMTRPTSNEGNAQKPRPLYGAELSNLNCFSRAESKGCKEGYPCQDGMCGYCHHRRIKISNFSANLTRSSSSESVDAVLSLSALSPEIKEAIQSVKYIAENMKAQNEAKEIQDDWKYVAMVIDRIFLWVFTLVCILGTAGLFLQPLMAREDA
UniProt P37136, 32-574 limits assumed: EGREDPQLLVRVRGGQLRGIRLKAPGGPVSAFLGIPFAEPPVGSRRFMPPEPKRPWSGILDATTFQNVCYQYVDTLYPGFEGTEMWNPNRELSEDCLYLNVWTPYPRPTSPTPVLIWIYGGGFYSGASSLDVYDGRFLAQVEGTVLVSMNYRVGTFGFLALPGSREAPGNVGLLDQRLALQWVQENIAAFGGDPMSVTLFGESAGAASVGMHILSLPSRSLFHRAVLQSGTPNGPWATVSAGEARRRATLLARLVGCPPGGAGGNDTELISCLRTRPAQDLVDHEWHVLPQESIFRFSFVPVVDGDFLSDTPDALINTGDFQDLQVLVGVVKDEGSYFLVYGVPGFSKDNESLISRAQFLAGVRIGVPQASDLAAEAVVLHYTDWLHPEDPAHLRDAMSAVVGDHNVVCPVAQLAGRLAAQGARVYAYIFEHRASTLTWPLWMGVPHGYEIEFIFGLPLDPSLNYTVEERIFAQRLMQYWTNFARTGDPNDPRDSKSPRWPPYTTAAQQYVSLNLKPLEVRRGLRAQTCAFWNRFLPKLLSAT
UniProt P55210, whole entry, looked up: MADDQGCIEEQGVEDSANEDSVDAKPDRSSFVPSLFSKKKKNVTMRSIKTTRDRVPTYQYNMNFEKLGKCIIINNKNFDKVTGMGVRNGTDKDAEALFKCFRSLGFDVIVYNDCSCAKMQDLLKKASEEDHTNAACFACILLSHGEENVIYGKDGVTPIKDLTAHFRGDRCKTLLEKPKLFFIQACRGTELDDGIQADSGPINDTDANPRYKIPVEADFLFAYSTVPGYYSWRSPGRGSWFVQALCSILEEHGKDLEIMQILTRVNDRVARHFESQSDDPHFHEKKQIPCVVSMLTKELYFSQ

SMILES = CC(C)C[C@H](NC(=O)CNC(=O)[C@H](CCCNC(=N)N)NC(=O)[C@H](CCCCN)NC(=O)[C@H](CCCCN)NC(=O)[C@H](CCCNC(=N)N)NC(=O)[C@H](CCCNC(=N)N)NC(=O)[C@H](CCCNC(=N)N)NC(=O)c1ccccc1N)C(=O)N[C@@H](CO)C(=O)NCC(=O)N[C@@H](CCC(N)=O)C(=O)NCCNc1ccc([N+](=O)[O-])cc1[N+](=O)[O-]; tested on = FURIN; test = substrate; setting = pH 7.0, 37 °C, no KCl; endpoint = Km; value = 3.01 µM
SMILES = CC(C)C[C@H](NC(=O)[C@H](Cc1ccccc1)NC(=O)CNC(=O)CNC(=O)[C@@H](N)Cc1ccc(O)cc1)C(=O)O; tested on = aminopeptidase III peak, rat; test = substrate; setting = MW 110 kDa, added: NAP-2; endpoint = kcat; value = 1.08 s⁻¹
SMILES = CC(C)C[C@H](NC(=O)[C@H](CO)NC(=O)[C@H](CCCNC(=N)N)NC(=O)[C@H](CCCCN)NC(=O)[C@H](CCCCN)NC(=O)[C@H](CCCNC(=N)N)NC(=O)[C@H](CCCNC(=N)N)NC(=O)[C@H](CCCNC(=N)N)NC(=O)c1ccccc1N)C(=O)N[C@@H](Cc1ccccc1)C(=O)NCC(=O)N[C@@H](CCC(N)=O)C(=O)NCCNc1ccc([N+](=O)[O-])cc1[N+](=O)[O-]; tested on = FURIN; test = substrate; setting = pH 7.0, 37 °C, no KCl; endpoint = Km; value = 1.65 µM
SMILES = CC(C)[C@H](NC(=O)[C@H](CO)NC(=O)[C@H](CC(=O)O)NC(=O)[C@H](CCC(N)=O)NC(=O)CCNC(=O)Cc1cc(=O)oc2cc(N)ccc12)C(=O)N[C@@H](CC(=O)O)C(=O)N[C@@H](Cc1ccccc1)C(=O)N[C@@H](COP(=O)(O)O)C(=O)N[C@@H](CC(N)=O)C(=O)N[C@@H](Cc1c[nH]cn1)C(=O)N[C@@H](CC(=O)O)C(=O)N[C@@H](CCCCNc1ccc([N+](=O)[O-])cc1[N+](=O)[O-])C(N)=O; tested on = CASP3; test = substrate; how to read = reference: unphosphorylated substrate over phosphorylated; endpoint = kcat/Km decrease; value = 58 fold
SMILES = C=C(CC)C(=O)c1ccc(OCC(=O)NCCOCCOCCOCCC(=O)NCCN(CCNC(=O)CCOCCOCCOCCNC(=O)COc2ccc(C(=O)C(=C)CC)c(Cl)c2Cl)CCNC(=O)[C@H](CNC(=O)CCN2C(=O)CC(SC[C@H](NC(=O)CNC(=O)[C@H](CC(C)C)NC(=O)[C@@H](NC(=O)[C@H](CCCCN)NC(=O)[C@H](CCCCN)NC(=O)[C@H](C)NC(=O)[C@H](CC(C)C)NC(=O)[C@H](C)NC(=O)[C@H](C)NC(=O)[C@H](CC(C)C)NC(=O)[C@H](C)NC(=O)[C@H](CCCCN)NC(=O)[C@H](CC(C)C)NC(=O)[C@H](CC(N)=O)NC(=O)[C@@H](N)[C@@H](C)CC)[C@@H](C)CC)C(=O)O)C2=O)NC(=O)CCCCCN2C(=CC=CC=CC3=[N+](C)c4ccc(S(=O)(=O)O)cc4C3(C)C)C(C)(C)c3cc(S(=O)(=O)[O-])ccc32)c(Cl)c1Cl (stereo partly shown); tested on = GSTP1 (Homo sapiens, UniProt P09211); test = covalent adduct, LC-MS; setting = 2.5 µM, 10 min; endpoint = mass increase; value = 3620 Da
SMILES = CC[C@H](C)[C@H](NC(=O)[C@H](CCCCNc1ccc([N+](=O)[O-])cc1[N+](=O)[O-])NC(=O)[C@H](CSC/C=C(\C)COCc1cccc(C(=O)c2ccccc2)c1)NC(=O)[C@H](CCCCN)NC(=O)[C@@H](NC(=O)[C@H](CCCCN)NC(=O)[C@H](CO)NC(=O)[C@H](CCCCN)NC(=O)c1ccccc1N)[C@@H](C)O)C(=O)N[C@@H](CCSC)C(=O)O; tested on = CAAX prenyl protease 2 (Saccharomyces cerevisiae S288c, UniProt Q03530); test = CAAX proteolysis, substrate, fluorescence; test system = yeast membranes; setting = range over 0 to 45 µM, 1 h, pH 7.5, 30 °C, membranes 0.25 mg/mL protein; endpoint = Vmax; value = 0.093 nmol/min/mg protein
SMILES = COC(=O)[C@H]1[C@@H](OC(=O)c2ccccc2)C[C@@H]2CC[C@H]1N2C; tested on = Sigmar1 (Mus musculus, UniProt O55242); test = receptor occupancy; test system = CD-1 mouse, whole brain; setting = intraperitoneal, added: iodinated radioligand; endpoint = ED50; value = 68 µmol/kg
SMILES = CC(C)[C@H](NC(=O)CNC(=O)[C@H](COP(=O)(O)O)NC(=O)[C@@H](NC(=O)[C@H](CCC(=O)O)NC(=O)[C@H](CC(=O)O)NC(=O)CCNC(=O)Cc1cc(=O)oc2cc(N)ccc12)C(C)C)C(=O)N[C@@H](CCCCNc1ccc([N+](=O)[O-])cc1[N+](=O)[O-])C(=O)N[C@@H](CC(=O)O)C(N)=O; tested on = CASP3; test = substrate; setting = pH 7.2; endpoint = Km; value = 8.76 µM
SMILES = N#Cc1c(-c2ccc(Cl)cc2Cl)n(-c2nc(-c3ccc(Cl)cc3)c3c(NC(=O)c4ccccc4)nnc-3[nH]2)[nH]c1=O; tested on = SK-MEL-5; test = SRB; endpoint = CC50; value = > 100 µM
SMILES = CC[C@H](C)[C@@H]1NC(=O)[C@H](CCC(=O)O)NC(=O)[C@@H]2CCCN2C(=O)[C@H](Cc2c[nH]cn2)NC(=O)[C@H](CCCNC(=N)N)NC(=O)[C@H](C(C)C)NC(=O)[C@H](CC(N)=O)NC(=O)[C@@H]2CSSC[C@H](NC(=O)CN)C(=O)N[C@@H](CSSC[C@@H](C(N)=O)NC1=O)C(=O)N[C@@H](CO)C(=O)N[C@@H](Cc1c[nH]cn1)C(=O)N1CCC[C@H]1C(=O)N[C@@H](C(C)C)C(=O)N2; tested on = Neuronal acetylcholine receptor; alpha3/beta2 (Homo sapiens, UniProt P17787+P32297); test = ion current, antagonist, two-electrode voltage clamp; test system = Xenopus oocytes; setting = human, added: ACh 100 µM; endpoint = IC50; value = > 10 µM
SMILES = COP(=O)(OC)Oc1ccc([N+](=O)[O-])cc1Cl; tested on = Ache (Rattus norvegicus, UniProt P37136); test = enzyme activity, inhibitor, discontinuous Ellman; test system = rat, postnatal day 1, rat lung homogenate; setting = 15 min, 37 °C; endpoint = IC50; value = 0.109 µM
SMILES = CC(C)[C@H](NC(=O)CNC(=O)[C@H](CC(=O)O)NC(=O)[C@@H](NC(=O)[C@H](CCC(=O)O)NC(=O)[C@H](CC(=O)O)NC(=O)CCNC(=O)Cc1cc(=O)oc2cc(N)ccc12)C(C)C)C(=O)N[C@@H](CCCCNc1ccc([N+](=O)[O-])cc1[N+](=O)[O-])C(=O)N[C@@H](CC(=O)O)C(N)=O; tested on = Caspase-7 (CASP7, Homo sapiens, UniProt P55210); test = substrate; setting = pH 7.2; endpoint = Km; value = 6.05 µM
SMILES = CCOC(=O)c1c(-c2ccc(Cl)cc2Cl)n(-c2nc(-c3ccc(Cl)cc3)c3c(NC(=O)c4ccccc4)nnc-3[nH]2)[nH]c1=O; tested on = 786-0; test = SRB; setting = 5-dose; endpoint = CC50; value = 5.7 µM

A few entries again:
SMILES = C=C(CC)C(=O)c1ccc(OCC(=O)NCCOCCOCCOCCC(=O)NCCN(CCNC(=O)CCOCCOCCOCCNC(=O)COc2ccc(C(=O)C(=C)CC)c(Cl)c2Cl)CCNC(=O)[C@H](CNC(=O)CCN2C(=O)CC(SC[C@H](NC(=O)CNC(=O)[C@H](CC(C)C)NC(=O)[C@@H](NC(=O)[C@H](CCCCN)NC(=O)[C@H](CCCCN)NC(=O)[C@H](C)NC(=O)[C@H](CC(C)C)NC(=O)[C@H](C)NC(=O)[C@H](C)NC(=O)[C@H](CC(C)C)NC(=O)[C@H](C)NC(=O)[C@H](CCCCN)NC(=O)[C@H](CC(C)C)NC(=O)[C@H](CC(N)=O)NC(=O)[C@@H](N)[C@@H](C)CC)[C@@H](C)CC)C(=O)O)C2=O)NC(=O)CCCCCN2C(=CC=CC=CC3=[N+](C)c4ccc(S(=O)(=O)O)cc4C3(C)C)C(C)(C)c3cc(S(=O)(=O)[O-])ccc32)c(Cl)c1Cl (stereo partly shown); tested on = GSTP1 (Homo sapiens, UniProt P09211); test = covalent adduct, LC-MS; setting = 2.5 µM, 10 min; endpoint = mass increase; value = 3620 Da
SMILES = CC[C@H](C)[C@H](NC(=O)[C@H](CCCCNc1ccc([N+](=O)[O-])cc1[N+](=O)[O-])NC(=O)[C@H](CSC/C=C(\C)COCc1cccc(C(=O)c2ccccc2)c1)NC(=O)[C@H](CCCCN)NC(=O)[C@@H](NC(=O)[C@H](CCCCN)NC(=O)[C@H](CO)NC(=O)[C@H](CCCCN)NC(=O)c1ccccc1N)[C@@H](C)O)C(=O)N[C@@H](CCSC)C(=O)O; tested on = CAAX prenyl protease 2 (Saccharomyces cerevisiae S288c, UniProt Q03530); test = CAAX proteolysis, substrate, fluorescence; test system = yeast membranes; setting = range over 0 to 45 µM, 1 h, pH 7.5, 30 °C, membranes 0.25 mg/mL protein; endpoint = Vmax; value = 0.093 nmol/min/mg protein
